# Published values from different studies.
# Numbered parts are unrelated; each lists some results of a single study. Changes are numbered by the printed parent chain.

# Block 1
# Target: ABI1, truncated, D143A, DHFR fusion (Arabidopsis thaliana)
# Method: DHFR PCA, deep sequencing
# Matrix: yeast
# Setting: methotrexate growth selection, single substitutions
# Together with: (+)-ABA 710 µM
# Relative to: wild-type fitted maximum
# Direction: higher = stronger binding
# Starting sequence: PYL1, truncated, DHFR fusion (Arabidopsis thaliana); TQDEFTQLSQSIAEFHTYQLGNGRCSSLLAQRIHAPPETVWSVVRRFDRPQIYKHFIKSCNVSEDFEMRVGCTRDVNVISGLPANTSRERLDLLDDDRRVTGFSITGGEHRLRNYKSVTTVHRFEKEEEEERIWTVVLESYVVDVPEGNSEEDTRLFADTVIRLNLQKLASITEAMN; partner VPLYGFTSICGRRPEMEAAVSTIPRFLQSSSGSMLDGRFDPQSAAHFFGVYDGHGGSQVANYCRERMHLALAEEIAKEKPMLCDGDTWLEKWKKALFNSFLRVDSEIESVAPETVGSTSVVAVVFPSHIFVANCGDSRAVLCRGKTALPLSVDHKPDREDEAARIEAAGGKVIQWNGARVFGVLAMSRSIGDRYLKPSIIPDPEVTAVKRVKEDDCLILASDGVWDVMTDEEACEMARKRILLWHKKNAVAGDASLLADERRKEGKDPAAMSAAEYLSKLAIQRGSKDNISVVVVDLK
Substitution,relative binding score [%]
S104M,78.2
T39V,105
N85G,104
D3C,102
R99S,88.2
S26G,97.4
I57F,47.8
I33N,-7.76
H16N,27.7
P50V,77.4
A84L,18
V136Q,81.4
T1M,96.9
T154C,94.9
S150C,95.2
V142A,97.5
I133A,112
H110T,83.8
P146A,97.9
Y18T,102
K126M,107
H34A,102
S42A,102
S140A,20.4
D96Y,58.6

# Block 2
# Target: Interferon regulatory factor 7, full length, phosphomimetic (IRF7, Homo sapiens, UniProt Q92985, residues 1-503, S101K/S471D/S472D/S475D/S476D/S477D/S483D/S484D/S487D)
# Method: protein-binding microarray
# Form: double-stranded DNA, one strand shown
# Matrix: in vitro
# Tested at: 250 nM
# Setting: 60-bp whole probe
# Together with: salmon DNA 0.4 mg/ml
# Relative to: random background probes
# Direction: higher = stronger binding
# Constant ends, left off below: GCCTAGCAC … GTCTTGATTCGCTTGACGCTGCTG
# Construct (chain): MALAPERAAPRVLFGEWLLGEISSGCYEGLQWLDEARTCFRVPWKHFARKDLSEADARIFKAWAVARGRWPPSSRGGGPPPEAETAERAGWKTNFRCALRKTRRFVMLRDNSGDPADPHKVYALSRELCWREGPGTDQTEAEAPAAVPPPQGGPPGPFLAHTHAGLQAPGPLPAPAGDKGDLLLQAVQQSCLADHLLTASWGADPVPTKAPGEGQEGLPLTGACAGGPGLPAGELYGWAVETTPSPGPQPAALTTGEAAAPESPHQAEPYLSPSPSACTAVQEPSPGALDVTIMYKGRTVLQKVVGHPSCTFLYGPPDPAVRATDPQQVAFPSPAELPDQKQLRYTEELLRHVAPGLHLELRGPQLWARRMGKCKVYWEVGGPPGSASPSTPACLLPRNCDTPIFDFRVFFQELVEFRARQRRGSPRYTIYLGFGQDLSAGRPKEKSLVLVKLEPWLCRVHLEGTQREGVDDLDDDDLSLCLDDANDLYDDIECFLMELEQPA
Strand,log fluorescence [z-score]
TAAGGTATCGACTATCGGTTAGTGCTA,0.437
AGTATTACCTCATCTTTCCCTGTGCTA,0.652
TCATTATGCTCTTTCTAACTGTGCTAG,1.04
GACTATTTCAGTTTCGAGACGTGCTAG,5.53
TCTTCTGGTGTGTCTGAAGAGTGCTAG,0.0553
TTTGGTCTCCTTATCCTTTAGTGCTAG,0.677
GAAGATTTCGGGTTTCGAGACGTGCTA,4.85
GCTTTTTTTTTTTTTTTTTTGTGCTAG,1.26
CTCTTTCTCTGCTACCCTTTGGTGCTA,2.51
GACGATATCGGGTATCGAGCCGTGCTA,-0.443
GACGGATTGCTTCTCCTGACGTGCTAG,-0.239
ATTTTTTTCTAATTGAAATCGTGCTAG,2.42
GACGATTTCAGTATCGATACGTGCTAG,1.07
GACTGACTGGGTATCGGGACGTGCTAG,-0.0992
GACGATCTCAGTAGCGAGACGTGCTAG,-0.235
GACGATATCGGGTATGGAGACGTGCTA,-0.0874
ATAGGACTGGACTATCGGTTAGTGCTA,-0.249
TTAGGACTGGACACCGGGTTAGTGCTA,-0.469
GACGGTTTCGGGACTGGGAACGTGCTA,4.78
GACGGCTTCGACTTTCGGGACGTGCTA,0.0546
TTAGATTTCAGTTTCTATTAGTGCTAG,4.49
GGCGGACTGGGGTTTCGGGACGTGCTA,0.635
GACGGACTGCTAATGCTGACGTGCTAG,-0.781

# Block 3
# Target: Histone acetyltransferase KAT6A, winged helix 2, GST fusion (KAT6A, Homo sapiens, UniProt Q92794, residues 85-181)
# Method: protein binding microarray
# Form: double-stranded DNA, one strand shown
# Matrix: in vitro
# Tested at: not given
# Setting: 8-mer, flanks averaged, mean of 2 arrays, mostly near background
# Relative to: not given
# Direction: higher = stronger binding
# Target sequence (chain): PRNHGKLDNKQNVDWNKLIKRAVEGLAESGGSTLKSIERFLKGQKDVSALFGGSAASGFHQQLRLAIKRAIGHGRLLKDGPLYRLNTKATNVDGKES
Strand,E-score
GATGTGCA,-0.129
CACGTCAC,-0.0721
ACGTTGAA,-0.0401
GCACAAAC,0.0946
CCAAATAC,-0.0567
AGGCAACA,-0.0754
ATAGAATG,-0.0373
AAAAATTG,-0.0922
GACCTTCA,-0.0814
AAGCCAAT,-0.0703
ATCGCGTG,0.0102
CTAATCAC,0.15
AATTGGCC,-0.063
AGCTTGAC,-0.123
TGTATGAA,-0.0575
GTGTAGCA,-0.053
ATCCACTA,-0.166
AACTTCTG,-0.00741
TAAAACTA,0.0559
ACGGCCTG,0.176
CATATGAC,-0.147
GACCACCC,-0.0769
AAACAACT,-0.149

# Block 4
# Target: RNA binding protein fox-1 homolog 2, RRM domain, GST-SBP tag (RBFOX2, Homo sapiens, UniProt O43251-10, residues 100-194)
# Method: RNA Bind-n-Seq
# Form: RNA
# Matrix: in vitro
# Tested at: 365 nM
# Setting: natural RNA segment, single round, ends assumed
# Relative to: no-protein control
# Direction: higher = stronger binding
# Constant ends, left off below: GGGAGUUCUACAGUCCGACGAUC … UGGAAUUCUCGGGUGCCAA
# Target sequence (chain): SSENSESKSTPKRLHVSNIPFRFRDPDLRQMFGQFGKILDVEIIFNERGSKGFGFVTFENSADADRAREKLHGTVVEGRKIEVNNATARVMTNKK
Strand,RBNS enrichment (R)
CUCUGGUGCUGUAUAAAGGGAAUAUUAAACUAGAUGUAAAUCAAAGUAUAUGUUUGGCUCAUUUGAGCAUUUUGGAAUAUUUGAGAAUGUAUGAUACAUGUAAAAUUAAA,1.64
AUCAUCAACCCCCAACCCUCUGGGUCUCUUGGAUUUCAGAGUGAAAACUUGAUUGGCAUUGAGAGGUGGAGCCAGGGGCUGAAGGAUGGGUCAGGAGGAGGGAGACAUGU,0.619
UGAAAAUUAGGCCAAAUGAUUUUAUUCCAAAUGUAAUUUAAUUGCUGCUGUUGGGCUUUCGUUUCUGCAAUUCAGCUUUGUUUAAAGUGAUUUGAAAAAUACUCAUUCUG,0.424
AAAGCUGAAGCACGUUUCAUAUGAAGCCAGUUCAGUGGCCUUGUUUAUUUCAAGACAAUGCCUUAUAUCACAUUGGAGGAGUUUGAAUACUUAACAGGUUCUUUGUCAAC,0.306
CCUGGGCAACAUGGCGAAACCUCGUCUCUACUAAAAAUACAAAAUAUAUAUAUAUAUAUAUAUACUAGCUGGGGCACAUAGUGGUGUGCACCUGUAGUCCCAGCUGCUUG,1.42
UCCCUCUUUAGGGACUGUCUGUCCAGUGACAGAUUAGCCAUAGAGUCAUGACACUUAGUAAGUUUGCUUCCUUUCUCUGUCAUUUGAUCCUAAGGUAACAUAUGUCUCAC,0.208
UCGCCUCCUGGGUUCAAGCGAUUCUCCUGCCUCCGCCUCCUGAGUAGCUGGGAUUAUAGGCACGCACCACCACGCCCAGCUAAUUUUUUGUAUUUUUAGUAGAGACAGAG,0.481
GGCACUCGCAGGAUCCUGCAGUGCUGGGCCCAGAGCCCUUGGACAGGCCUCAGGAGUGGUCAGGACCACCAAGCCCCUCCUCUCCCCCUCCACACCUCUAGACCUGGGGC,0.207
UUGGAGGUUAGAUAAUGAAACCCGAGACUGUCUUCAGAAUAUAUACAAUCUGAAUAGUGUGCUGUCAGGAGUGGUUUGUCGGAGCAGCGCUUGCCACAAUGAUUCCGUGU,1.15
GAAUAUGUAUUCAUAUAAUCUGCCUACUUUUGAGUUCUCAUAUUAACAUUUAGAUAACAUAUGAAGUAUGGCCCCCUUGGAUCCUUGUUUUUAAGUUACUUUCGAUGUGU,0.493
CCUGGUGAAAAAUAAAAACCGGAGAAGUCAUUUGGAGGGCCAUCCUAAAGCUCUACUGUAUAAUGACGCCAGCAUGAGCCAGAAAGGGAAGGGCAGUGGGACUUGAGUAU,2.78
UUCUAUUUUUGUAACCUUCCUAUUUUGUAGCUCUGUUUAGAGAGAUGCUGGUUUUUGCCUGAAGGCCCUGCAGCCUGCCCACAUCAGGUUAAACCCACAGCUUUUGUGUG,1.05

# A few entries again (block 3):
Strand,E-score
AAAAATTG,-0.0922
GACCTTCA,-0.0814
AAGCCAAT,-0.0703
ATCGCGTG,0.0102
CTAATCAC,0.15
AATTGGCC,-0.063
